Results pooled from the literature.
A part holds a random share of what one study measured. Changes are numbered by the printed parent chain.

Set 1 — method: RNA Bind-n-Seq; molecule type: RNA; matrix: in vitro; concentration: 200 nM; setting: whole 134-nt RNA, ends assumed; together with: 150 mM KCl; baseline: input library; direction: higher = stronger binding; quantity: log2 enrichment
Target: Fragile X messenger ribonucleoprotein 1, C-terminal low-complexity region (Fmr1, Mus musculus, UniProt P35922)
Constant ends, left off below: GGGAGUUCUACAGUCCGACGAUC … UGGAAUUCUCGGGUGUCAAGG
UGGCCCUGGUGGGAUGCGGGGAGGAAGAGGUGGCCUCAUGGAUCGUGGUGGUCCCGGUGGAAUGUUCAGAGGUGGCCGUGGUGGAGACAG: 0.301
CUCAGCAGACCCUGAAGGACACUUUGAGACACCAAUCUGGAUUGAGCGGGUGGUGAUAAUAGGGGCUGGAAAGCCAGCAGCUGUGGUACU: 0.429
UCCGCGUGUGAAGUUUUUCUCGGCUGCAUCAUGGGUGCCACAUUCUUUUUGUUGUUUUCAGUGCUGCAAAAGCCCCAUAUCUGGCCAAGU: -0.531
GCAGGAAGUAAAAACAAAUGGAAAUGCUUCGGAUAGUAGCAGGGGUGGGGGUUGCUAAGGAAAGGGUGGGAUGGGAGUGGGUAAAGAGUU: -0.0114
UGGCCCUGGUGGCAUGCGUGGAGGAAGAGGUGGCCUCAUGGAUCGUGGUGGUCCCGGUGGAAUGUUCAGAGGUGGCCGUGGUGGAGACAG: 0.19
CUCAAGUCCUGUGCUACACAUCGUAUGUACCGAAUCGGCCCGGCCCGGCCCGGGAAAGUAUUAUGUUACGCCGUUCGGAUCUGCACUUCC: -0.164
UCCUGUGCUACACAUCGUAUGUACCGAAUCGGGGAAAGGGGAAAGGGGUUUUUUUGGGGAAAGUAUUAUGUUACGCCGUUCGGAUCUGCA: 0.417
CUCAAGUCCUGUGCUACACAUCGUAUGUACCGAAUCGGGCCCGGCCCGGCCCGGAAAGUAUUAUGUUACGCCGUUCGGAUCUGCACUUCC: -0.412
AGUCCUGUGCUACACAUCGUAUGUACCGAAUCGGUUUGGAAAAAAAGGUUUUUUUGGAAAGUAUUAUGUUACGCCGUUCGGAUCUGCACU: -1.19
CUCAAGUCCUGUGCUACACAUCGUAUGUACCGAAUCGGGGAGGGAGGGGAGGGAAAGUAUUAUGUUACGCCGUUCGGAUCUGCACUUCCA: 1.32
GUCCUGUGCUACACAUCGUAUGUACCGAAUCGGAAAAAGGGGAAAAAGGAAAAAGGGGAAAGUAUUAUGUUACGCCGUUCGGAUCUGCAC: -0.31
UGGCCCUGGUGGCGUGCGGGGAGGAAGAGGUGGCCUCAUGGAUCGUGGUGGUCCCGGUGGAAUGUUCAGAGGUGGCCGUGGUGGAGACAG: 0.575
AGUCCUGUGCUACACAUCGUAUGUACCGAAUCGGGGUUUGGGGAAAGGGGUUUGGGGAAAGUAUUAUGUUACGCCGUUCGGAUCUGCACU: 0.779
AGUCCUGUGCUACACAUCGUAUGUACCGAAUCGGGGAAAAAGGGGUGGGGAAAGGGGAAAGUAUUAUGUUACGCCGUUCGGAUCUGCACU: 0.335

Set 2 — target: CCNB1, cyclin fold, Cln2 fusion (human); method: yeast growth competition, sequencing; matrix: yeast; setting: weak parent motif; baseline: not given; direction: higher = stronger binding; quantity: normalised enrichment score
Parent: CENPC docking peptide (human); VKTKKRLNFDDKV
VKTKKRLNFDAKV [D11A]: 1.08
VKTKRRLNFDDKV [K5R]: 1.26
VKTKARANFDDKV [K5A L7A]: 0.555
VKTKKALNFDDKV [R6A]: 0.255
VATKKRLNFDDKV [K2A]: 0.904
VKTKKRANFDDKV [L7A]: 0.322
VKTKARLNFDDKV [K5A]: 0.751
VKTKKRLNLDDKV [F9L]: 0.273
AKTKKRLNFDDKV [V1A]: 0.451
VKTAKRLNFDDKV [K4A]: 1.02

Set 3 — target: FOSL1, bZIP domain (human); method: DHFR protein complementation; matrix: yeast; baseline: wild-type JUN-FOS pair; direction: higher = stronger binding; quantity: binding fitness
Setting: single substitutions, most at no-binding floor
Parent: JUN, bZIP domain (human); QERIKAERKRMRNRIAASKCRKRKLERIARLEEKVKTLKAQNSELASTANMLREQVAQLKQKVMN; partner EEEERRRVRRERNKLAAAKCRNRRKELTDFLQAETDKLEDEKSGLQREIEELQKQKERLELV
V56F: -1.37 natural log
A29C: -0.687 natural log
Q41K: -0.749 natural log
L52S: -1.46 natural log
K34C: -0.67 natural log
A57N: -0.36 natural log
K39A: -0.866 natural log
A29N: -0.599 natural log
R30V: -0.119 natural log
E32F: -0.769 natural log
V56G: -1.38 natural log
T37S: -0.406 natural log
A49L: -0.432 natural log
E32Q: -0.467 natural log
Q55K: -0.459 natural log
A57Q: -0.542 natural log
A49S: -1.14 natural log

Set 4 — method: RNA Bind-n-Seq; molecule type: RNA; matrix: in vitro; concentration: 365 nM; baseline: no-protein control; direction: higher = stronger binding; quantity: RBNS enrichment (R)
Target: RNA binding protein fox-1 homolog 2, RRM domain, GST-SBP tag (RBFOX2, Homo sapiens, UniProt O43251-10, residues 100-194)
Setting: natural RNA segment, single round, ends assumed
Constant ends, left off below: GGGAGUUCUACAGUCCGACGAUC … UGGAAUUCUCGGGUGCCAA
Target sequence (chain): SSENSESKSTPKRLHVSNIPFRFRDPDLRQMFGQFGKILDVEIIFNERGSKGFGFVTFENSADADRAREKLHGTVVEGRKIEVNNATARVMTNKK
CUGUCCUUAUCUCCUGUCAUAGCUGUCCAACUGCAGGGUAAGGAGCAAGUUGUGAGGAAAGGUCCUCAGAACAUGGGAUUCCACAUGAGGAAUCCUUAGGCUGCCAGGAA: 0.418
ACAGCUGUGAGGGUGGCUAUUGAGUUCCUUCCAGUGUCUCAAGUCACAGGUGUGUGCAGUUGUGAAGAUCUCCAGGGAGACUCCAUCUUACCCUCCCCUUGUACUAAGAG: 0.337
CAUUCGAAGGACAUCAGCGACCUUGGCUUGUUUAGGUGAUUUUACUUCCAGCUGCAGGUAGUCUUGACAAGGAGUGUUUAAACAGAAGGCUCAAGAUGCAUUCCUUGUGU: 0.546
CAAUUUGAACUCAGGUUGUUUAUGAGGGGAAAAAAACAGUUGCAUAGAGUAUAGCUCUGUAGUGGAAUAUGUCUUCUGUAUAACUAGGCUGUUAACCUAUGAUUGUAAAG: 0.555
CUGCUGGGUGGUGAUUGUGAGUUCAGACAAUAAAAAAAAUGUAUUUUUUUCAAUACUGUAUAAAAAUAGUAUUCUGAUUACCUCCCCCUCAAUAAAAAAAAAGUCCAGAU: 0.612
AGUGAUUAUAACCAGUUACAACCUGUAUUUCUUUUUGCAGCCAGCACAGUGUGAACCAACUCAGACUUUGAGAGAAAAAGAAUGCAGGAGUGGAAUAACCAAGUCAAAAA: 0.278
CAUUCUAUACAAAACUGUGCUGUGACCUUGCGGUAGGCCUGGAUCUGGCAAAGAGAAUACAAAUGAAACCCCUUCUUUCUCUUUCCGUCCAACAACUCUGUAGAGCUCUC: 0.827
AUGGGCAUACAAGGUGAGUUGUACGUAGAACUAAAUCCUUGAGUGUUUCCCACCUGACUCUACUAUACUCUUCCUGAUCACCAUGUGGCCUAAGAAUAUAUACUAUGGAG: 0.378
UCAGAAUCUUCCUUAAGAGGGUGUCCAGUAUUAACUUUGAUUGGGAUUAAUCCAGGCAAAAGAAGAGACUUUAUCAGAGAGUGGAGUGAAGCAUUGUGGGUACUACCCGU: 0.435
AGCUUAGCAUUUUCAGUACUCACUGCUGAUCCUUGGUAGAAGUGCAGACUAGAAUAGAGCUAAAAAUCACGUAUCAACACAGAAUAGCACAUGGUAUUUUGAGUCUUUUU: 0.839
CACUGCUGAGACUGCCUCUUGUUAAUGUCACCAUCACCUCAUCACUCAGGCAAAGAGGGGAAAAUCCAUAAAAGAGGUGGAAAAUGCAUUUAGUUUUUUCAUUUUGUUCU: 0.75
UGGUGAUUUUUUAGCCCCUAAAUAAAACACUGGACUAUUUCCUGUUUACUUCAUUGAUUGCAACUACAAAGGUGGACUCAAAGCAAAGCACAAUCAUGCCAGCCAACAUU: 0.632

Set 5 — method: protein binding microarray; molecule type: double-stranded DNA, one strand shown; matrix: in vitro; concentration: not given; baseline: not given; direction: higher = stronger binding; quantity: E-score
Target: Histone acetyltransferase KAT6A, both winged helices, GST fusion (KAT6A, Homo sapiens, UniProt Q92794, residues 1-181)
Setting: 8-mer, flanks averaged, mean of 2 arrays, mostly near background
Construct (chain): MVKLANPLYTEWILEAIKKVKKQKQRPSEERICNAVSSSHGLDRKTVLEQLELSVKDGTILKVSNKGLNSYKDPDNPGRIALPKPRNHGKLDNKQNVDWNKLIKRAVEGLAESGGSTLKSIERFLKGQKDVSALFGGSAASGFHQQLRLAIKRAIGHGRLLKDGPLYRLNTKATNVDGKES
ACGTGCAA: -0.141
ATGGTAAT: -0.0984
AAAGTTGC: -0.0299
AGCGATGG: 0.039
AGGTCAGA: -0.0999
CGACCGAC: 0.127
ATTAGGTG: -0.177
CTCACCTC: -0.159
TATAACGA: -0.0582
CCCAATAC: -0.184
ATACGGGC: 0.211
CGGATACC: 0.127
AAGGACAT: 0.0331
ATCGGAAG: 0.0492
GACGAACA: 0.102
CCAGCTAC: -0.222
ATGAGACG: 0.113
GATGTATA: -0.109
CAGGCCGG: 0.113
CATATTAA: -0.0585
CTCGACTA: -0.203
CGATGAAC: 0.134
AAAGTAGT: -0.133
CCGAAATC: 0.0657
ATCAGCGA: 0.0595

Set 6 — method: universal PBM; molecule type: double-stranded DNA, one strand shown; matrix: in vitro; concentration: not given; direction: higher = stronger binding; quantity: E-score
Target: Sal-like protein 4, full length isoform B (SALL4, Homo sapiens, UniProt Q9UJQ4-2, residues 1-616)
Setting: 8-mer, flanks averaged, mean of replicates
Residues (chain): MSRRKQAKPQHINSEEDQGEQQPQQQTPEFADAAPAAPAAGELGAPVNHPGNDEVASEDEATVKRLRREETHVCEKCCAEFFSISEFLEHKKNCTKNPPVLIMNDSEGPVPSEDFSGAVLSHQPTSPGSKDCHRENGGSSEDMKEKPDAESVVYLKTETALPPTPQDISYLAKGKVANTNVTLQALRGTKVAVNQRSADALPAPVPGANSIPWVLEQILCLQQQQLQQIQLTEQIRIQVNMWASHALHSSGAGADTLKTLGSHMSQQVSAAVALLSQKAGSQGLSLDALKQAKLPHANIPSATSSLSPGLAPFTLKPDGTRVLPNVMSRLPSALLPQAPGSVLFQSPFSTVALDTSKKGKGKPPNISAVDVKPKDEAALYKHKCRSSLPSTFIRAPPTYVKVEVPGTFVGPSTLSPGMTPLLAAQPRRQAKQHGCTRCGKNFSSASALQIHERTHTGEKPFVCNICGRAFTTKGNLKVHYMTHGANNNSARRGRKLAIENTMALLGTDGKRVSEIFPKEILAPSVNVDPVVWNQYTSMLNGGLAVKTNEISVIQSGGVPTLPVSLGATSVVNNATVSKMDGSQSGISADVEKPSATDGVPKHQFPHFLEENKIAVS
CAGGACAC: -0.13
GTATCCCA: -0.0697
GCCAAATA: 0.1
AGTTACTG: -0.0278
AAACGTAT: 0.219
GTTTAACA: 0.162
GTTAGAGA: 0.00183
AGTAAACG: 0.0906
AATGTGCA: 0.155
AGCCCGAA: -0.225
ACACTGGT: -0.0109
GAAAGGAA: -0.119
AGTCTTCG: -0.0863
CCTGGGTA: -0.217
AAACCCTC: 0.0154
GGTTATTA: 0.388
ATGGAAGC: -0.00259
CAGACACA: -0.058
AACTTAAT: 0.269
ATGGTGAC: -0.017
ACTAACGA: 0.0719
ACACTCTC: 0.0312
ACACCGTA: -0.0893

Some of these lines once more (set 3):
A49S: -1.14 natural log
Q41K: -0.749 natural log
R30V: -0.119 natural log
Q55K: -0.459 natural log
V56F: -1.37 natural log
A49L: -0.432 natural log
A29N: -0.599 natural log
K34C: -0.67 natural log
L52S: -1.46 natural log
E32F: -0.769 natural log
E32Q: -0.467 natural log
V56G: -1.38 natural log
